Assay results of several laboratories.
Protocols differ between the studies behind these lines. Values joined by “and” are separate records of one study, mostly repeats; a detail may differ. ± marks the error that the study gave.

| Compound | assay | system | setting | how to read | endpoint | result |
| --- | --- | --- | --- | --- | --- | --- |
| Cn1cc(Nc2nccc(-c3ccc4c(c3)CN(C3COC3)CC[C@H]4NC(=O)c3cn(C(C)(C)C)nn3)n2)cn1 | measured: Granulocytes count | human, clinical trial, whole blood | 50 mg twice daily, follow-up |  | percent change from baseline | 22.2% |
| CN(C)c1cc(NC(=O)CNC(C)(C)C)c(O)c2c1C[C@H]1C[C@H]3[C@H](N(C)C)C(O)=C(C(N)=O)C(=O)[C@@]3(O)C(O)=C1C2=O | starch gel membrane permeability | Gram-negative envelope surrogate | 200 µM, 10 min, pH 7.4 |  | amount permeated | 0.47 nmol |
| CNC(=O)c1cc(Oc2ccc(NC(=O)Nc3cc(C(C)(C)C)nn3-c3ccc4ncccc4c3)c(F)c2)ccn1 | measured: worst grade 2 | human | oral, dose not given, cycles 1 and 2, Low Cmax subgroup |  | patients with musculoskeletal disorder AE | 6% |
| CC(=O)NCc1cc2c(cc1F)C(=O)N(C1CCC(=O)NC1=O)C2 (stereo not drawn) |  | cynomolgus monkey, male | oral, 0.3 mg/kg parent drug, 6 h |  | plasma concentration | 0.15 ng/mL |
| Cn1cnc2[nH]c(=O)[nH]c(=O)c21 |  | human, both sexes, cerebrospinal fluid |  |  | samples above LOQ | 0% |
| NC/C(=C\F)COc1cccc(Cn2c(=S)[nH]c(=O)c3[nH]cnc32)c1 |  | human hepatocytes | 1 µM, 1 h |  | remaining compound | 75% |
| CCn1cc(C(=O)O)c(=O)c2cnc(N3CCNCC3)nc21 | starch gel membrane permeability | Gram-negative envelope surrogate | 200 µM, 90 min, pH 7.4 |  | amount permeated | 4.81 nmol |
| CNC(=O)c1ccc(-c2cnc3ncc(Cc4ccc5ncccc5c4)n3n2)cc1F | measured: Ascites | gastric cancer patients | oral, 600 mg twice daily, expansion cohort, grade 3-4 |  | patients with adverse event | 11% |
| Cc1nc(-c2cnc(NC(C)C)n(C)c2=O)ccc1Oc1ccnc(-c2cnn(C)c2)c1 |  | Beagle dog, male, plasma | oral, 10 mg/kg, crossover study, mean |  | apparent clearance | 13.8 mL/min/kg |
| C[C@H]1[C@H](NC(=O)/C(=N\OC(C)(C)C(=O)O)c2csc(N)n2)C(=O)N1S(=O)(=O)O | starch gel membrane permeability | Gram-negative envelope surrogate | 200 µM, 60 min, pH 7.4 |  | amount permeated | 3.7 nmol |
| C[C@H]1O[C@@H](O[C@H]2[C@@H](O)C[C@H](O[C@H]3[C@@H](O)C[C@H](O[C@H]4CC[C@@]5(C)[C@H](CC[C@@H]6[C@@H]5C[C@@H](O)[C@]5(C)[C@@H](C7=CC(=O)OC7)CC[C@]65O)C4)O[C@@H]3C)O[C@@H]2C)C[C@H](O)[C@@H]1O | measured: dizziness | healthy men | oral, dose not given, 8 days, treatment-emergent, crossover trial |  | subjects with adverse event | 4.5% |
| NC1(C(=O)N[C@@H](CCO)c2ccc(Cl)cc2)CCN(c2nc[nH]c3nccc2-3)CC1 |  | metastatic CRPC patients | 400 mg b.i.d., grade 3 to 4, treatment-related, added: enzalutamide 160 mg daily |  | incidence of weight decreased | 0% |
| CC(C)(C(=O)N1CCOc2c(C#N)cncc2C1)C(F)F | measured: ALT increased | human | oral, 10 mg, CSF pharmacokinetic cohort |  | subjects with adverse event | 16.7% |
| COc1ccc(C2CC(=O)c3c(O)cc(OS(=O)(=O)O)cc3O2)cc1O (stereo not drawn) |  | human plasma | median |  | plasma concentration | 6.33 µM |
| C=CC(=O)Nc1cc(Nc2nccc(-c3cn(C)c4ccccc34)n2)c(OC)cc1N(C)CCN(C)C | storage stability | human plasma | 30 d, -80 °C, LLOQ level |  | recovery | 95.6% |
| O=c1oc2cc(O)ccc2c2ccc(O)cc12 |  | human plasma | mean |  | plasma concentration | 0.0791 µM |
| CO[C@@H]1[C@@H](OC(N)=O)[C@@H](O)[C@H](Oc2ccc3c(O)c(NC(=O)c4ccc(O)c(CC=C(C)C)c4)c(=O)oc3c2C)OC1(C)C | starch gel membrane permeability | Gram-negative envelope surrogate | 200 µM, 90 min, pH 7.4 |  | amount permeated | 2.7 nmol |
| Cc1ccc(C(=O)N(CCCN)C(c2nc3snc(C)c3c(=O)n2Cc2ccccc2)C(C)C)cc1 (stereo not drawn) |  | patients, plasma | intravenous, 16 mg/day, 24 h, first induction course, geometric mean |  | C24h | 23.3 ng/mL |
| CCc1cc(C(=O)NC)c2nccc(N3CCc4c(cc(Cn5ccnc5)cc4-c4cn(C)nc4C(F)(F)F)C3=O)c2c1 |  | Sprague Dawley rat | oral, 50 mg/kg once daily, day 7, 7-day toxicology study |  | body weight | 269 ± 7.9 g |
| Cc1ccc([C@@H]2O[C@H](CO)[C@@H](O)[C@H](O)[C@H]2O)cc1Cc1ccc(-c2ccc(F)cc2)s1 |  | Japanese type 2 diabetes patients | 100 mg, day 1, 24 h urine collection | baseline: baseline | urinary calcium excretion change | -23.2 mg |
| CCc1nc(C(N)=O)c(Nc2ccc(N3CCC(N4CCN(C)CC4)CC3)c(OC)c2)nc1NC1CCOCC1 |  | Japanese patients, plasma | oral, 40 mg, cycle 1 day 28, multiple doses, median | baseline: single dose | accumulation ratio (AUC) | 5.48 |

| Compound | assay | system | setting | how to read | endpoint | result |
| --- | --- | --- | --- | --- | --- | --- |
| NC(=O)N1c2ccccc2C=Cc2ccccc21 |  | human, serum | concentration not given |  | GGT | ≤ 133 U/L |
| CC1CCNc2c(C(=O)NC/C=C/S(C)(=O)=O)cccc21 (stereo not drawn) |  | uninfected mouse, serum | 300 mg/kg |  | serum CREAT | 0.36 mg/dL and 0.43 mg/dL |
| COc1cc2c3c(n(CCCN4CCOCC4)c(=O)c2cc1OC)-c1cc2c(cc1C3=O)OCO2 |  | Fischer 344 rat, male, plasma | intravenous bolus, 24 mg/m^2 |  | clearance | 51 to 56 L/h/m² |
| COc1ccc(C(=O)O)c(O)c1 |  | human plasma | mean |  | plasma concentration | 0.209 µM |
| Cc1cc(-c2nccc3c2ccn3CC(=O)Nc2ccc(-c3cnccn3)cn2)ccn1 |  | human | 20 mg once daily, multiple ascending dose |  | foreign body sensation | 0% |
| O=C(O)c1ccccc1 |  | human plasma | median, both sexes |  | plasma concentration | 58.3 µM |
| CN1CCN(c2cccc3c2CCN(C(=O)/C=C/c2c(-n4cnnn4)ccc(Cl)c2F)[C@@H]3C(=O)Nc2ccc(C(=O)O)cc2)C(=O)C1 |  | healthy human subjects | intravenous infusion, 4 mg/h, 2 h |  | subjects with treatment-related adverse event | 0% |
| C[C@H]1Oc2cc(cnc2N)-c2c(nn(C)c2C#N)CN(C)C(=O)c2ccc(F)cc21 |  | human patients, plasma | oral, dose not given, cycle 2 day 1, median, added: avelumab |  | AUCtau, dose-normalized | 61 ng·h/mL/mg |
| CO[C@H]1C[C@@H]2CC[C@@H](C)[C@@](O)(O2)C(=O)C(=O)N2CCCC[C@H]2C(=O)O[C@H]([C@H](C)C[C@@H]2CC[C@@H](O)[C@H](OC)C2)CC(=O)[C@H](C)/C=C(\C)[C@@H](O)[C@@H](OC)C(=O)[C@H](C)C[C@H](C)/C=C/C=C/C=C/1C |  | healthy adult horses | oral, 0.06 mg/kg, 48 h |  | heart rate | 33.5 ± 2.8 beats/min |
| O=C(O)CCC(=O)O.[2H]C([2H])([2H])Oc1cc(C)c2[nH]ccc2c1CN1CC[C@@H](C2CC2)C[C@H]1c1ccc(C(=O)O)cc1 | multiple ascending dose | healthy Chinese subjects | 125 mg twice daily |  | subjects with allergic dermatitis TEAE | 0% |
| COc1cc([C@@H]2Oc3cc([C@H]4Oc5cc(O)cc(O)c5C(=O)[C@@H]4O)ccc3O[C@H]2CO)ccc1O |  | OATP1B1/1B3 humanized mice, plasma | oral gavage, 500 mg/kg silymarin, geometric mean |  | AUC(0-4h) | 1.15 µM·h |
| COc1ccc2nc(-c3ccccn3)c(N(C)c3ccc(F)cc3)n2c1 |  | male CD-1 mouse, fasted, plasma | oral, 50 mg/kg, added: 1-aminobenzotriazole 50 mg/kg |  | elimination half-life | 1.78 h and 1.64 h |
| Cc1c2oc3c(C)ccc(C(=O)N[C@@H]4C(=O)N[C@H](C(C)C)C(=O)N5CCC[C@H]5C(=O)N(C)CC(=O)N(C)[C@@H](C(C)C)C(=O)O[C@@H]4C)c3nc-2c(C(=O)N[C@@H]2C(=O)N[C@H](C(C)C)C(=O)N3CCC[C@H]3C(=O)N(C)CC(=O)N(C)[C@@H](C(C)C)C(=O)O[C@@H]2C)c(N)c1=O |  | children with cancer, plasma | dose not given, 5 min |  | minimum plasma concentration | 64.7 µg/L |
| C=CCN1CC(=O)N2[C@@H](Cc3ccc(O)cc3F)C(=O)N(Cc3cccc(N4CC(N5CCN(CC)CC5)C4)n3)C[C@@H]2N1C(=O)NCc1ccccc1 |  | advanced solid tumour patients | oral, 30 mg twice daily, grade ≥3, dose-escalation |  | treatment-related AST increased | 0% |
| N#Cc1ccc2c(c1)[C@H]1CCCN(C(=O)c3ccc4[nH]cnc4c3)[C@H]1C2 |  | human | 40 mg, end of trial |  | minimum ACTH level | 2 pmol/L |
| CNc1ccc(-c2nc3ccc(O)cc3s2)cc1 [carbon-11 labelled] | microPET/CT imaging | APP/PS1 mouse, AD model, brain | intravenous, 15 min |  | SUV | 0.278 ± 0.099 |
| Cl.[2H]C([2H])([2H])CC(=O)c1cnc(NC(=O)C2CC2)cc1Nc1cccc(-c2ncn(C([2H])([2H])[2H])n2)c1OC |  | human, fed, multiple dose | oral, 30 mg twice daily, tablet, day 14, geometric mean |  | AUC(0-tau) | 1880 ng·h/mL |
| O=C(Nc1nc2cccc(-c3ccc(CN4CCS(=O)(=O)CC4)cc3)n2n1)C1CC1 | measured: blood triglycerides increased | rheumatoid arthritis patients | oral, 30 mg once daily, 4 weeks, any relatedness |  | treatment-emergent adverse events | 5.9% |
| COc1ccc2[nH]c([S+]([O-])Cc3ncc(C)c(OC)c3C)nc2c1 (stereo not drawn) | LC-MS/MS | healthy Chinese, CYP2C19*3 GA, plasma | oral, 20 mg |  | Cmax | 588 ± 498 ng/mL |
| O=S(=O)(O)Oc1cc(O)cc(/C=C/c2ccc(O)cc2)c1 |  | human, cerebrospinal fluid |  |  | samples above LOQ | 0% |
| CC[C@H](C)[C@H](NC(=O)[C@H](Cc1ccccc1)NC(=O)[C@H](CCC(=O)O)NC(=O)[C@H](CCCCNC(=O)COCCOCCNC(=O)COCCOCCNC(=O)CC[C@H](NC(=O)CCCCCCCCCCCCCCCCC(=O)O)C(=O)O)NC(=O)[C@H](C)NC(=O)[C@H](C)NC(=O)[C@H](CCC(N)=O)NC(=O)CNC(=O)[C@H](CCC(=O)O)NC(=O)[C@H](CC(C)C)NC(=O)[C@H](Cc1ccc(O)cc1)NC(=O)[C@H](CO)NC(=O)[C@H](CO)NC(=O)[C@@H](NC(=O)[C@H](CC(=O)O)NC(=O)[C@H](CO)NC(=O)[C@@H](NC(=O)[C@H](Cc1ccccc1)NC(=O)[C@@H](NC(=O)CNC(=O)[C@H](CCC(=O)O)NC(=O)C(C)(C)NC(=O)[C@@H](N)Cc1cnc[nH]1)[C@@H](C)O)[C@@H](C)O)C(C)C)C(=O)N[C@@H](C)C(=O)N[C@@H](Cc1c[nH]c2ccccc12)C(=O)N[C@@H](CC(C)C)C(=O)N[C@H](C(=O)N[C@@H](CCCNC(=N)N)C(=O)NCC(=O)N[C@@H](CCCNC(=N)N)C(=O)NCC(=O)O)C(C)C |  | type 2 diabetes patients | dose not given, hypoglycaemic clamp, nadir PG 5.5 mmol/L |  | systolic blood pressure change | -1.6 mm Hg |

Some of these lines once more:
| Compound | assay | system | setting | how to read | endpoint | result |
| --- | --- | --- | --- | --- | --- | --- |
| C=CCN1CC(=O)N2[C@@H](Cc3ccc(O)cc3F)C(=O)N(Cc3cccc(N4CC(N5CCN(CC)CC5)C4)n3)C[C@@H]2N1C(=O)NCc1ccccc1 |  | advanced solid tumour patients | oral, 30 mg twice daily, grade ≥3, dose-escalation |  | treatment-related AST increased | 0% |
| N#Cc1ccc2c(c1)[C@H]1CCCN(C(=O)c3ccc4[nH]cnc4c3)[C@H]1C2 |  | human | 40 mg, end of trial |  | minimum ACTH level | 2 pmol/L |
| CNc1ccc(-c2nc3ccc(O)cc3s2)cc1 [carbon-11 labelled] | microPET/CT imaging | APP/PS1 mouse, AD model, brain | intravenous, 15 min |  | SUV | 0.278 ± 0.099 |
| Cl.[2H]C([2H])([2H])CC(=O)c1cnc(NC(=O)C2CC2)cc1Nc1cccc(-c2ncn(C([2H])([2H])[2H])n2)c1OC |  | human, fed, multiple dose | oral, 30 mg twice daily, tablet, day 14, geometric mean |  | AUC(0-tau) | 1880 ng·h/mL |
